Assay results of several laboratories.
A part holds a random share of what one study measured. Positions count from the first letter of the parent shown.

Block 1
Target: Fragile X messenger ribonucleoprotein 1, C-terminal low-complexity region (Fmr1, Mus musculus, UniProt P35922)
Method: RNA Bind-n-Seq
Form: RNA
Sample: in vitro
Concentration: 200 nM
Setting: whole 134-nt RNA, ends assumed
Added: 150 mM KCl
Baseline: input library
Reading: higher = stronger binding
Sequence	log2 enrichment
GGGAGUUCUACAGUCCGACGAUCUCCCUGAAUCACCGACUGGAGGAGAGUUACCUACAAGAGCCUUCAUCCAGGAGCAUCCACACUGCAAUGAUAUAGGAAUGAGGUCUGAACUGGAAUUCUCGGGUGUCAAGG	-0.0442
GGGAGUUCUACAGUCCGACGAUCUCAAGUCCUGUGCUACACAUCGUAUGUACCGAAUCGGUGGAAAAAGGUUUUUGGAAAGUAUUAUGUUACGCCGUUCGGAUCUGCACUUCCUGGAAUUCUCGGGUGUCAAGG	-0.603
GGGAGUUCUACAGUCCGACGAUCUGGCUCUGGUGGCAUGCGGGGAGGAAGAGGUGGCCUCAUGGAUCGUGGUGGUCCCGGUGGAAUGUUCAGAGGUGGCCGUGGUGGAGACAGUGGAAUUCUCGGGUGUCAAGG	0.348
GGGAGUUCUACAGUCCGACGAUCCCUGUGCUACACAUCGUAUGUACCGAAUCGGGGAAAAAAGGGAAAAAAGGAAAAAAGGGGAAAGUAUUAUGUUACGCCGUUCGGAUCUGCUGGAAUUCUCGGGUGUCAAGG	-0.509
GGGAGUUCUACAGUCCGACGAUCCCUCAAGUCCUGUGCUACACAUCGUAUGUACCGAAUCGGGUGGGUGGGUGGGAAAGUAUUAUGUUACGCCGUUCGGAUCUGCACUUCCAGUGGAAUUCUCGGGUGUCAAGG	0.784
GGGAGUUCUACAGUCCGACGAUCGUCCUGUGCUACACAUCGUAUGUACCGAAUCGGGAAAAAGGGAAAAAGGGAAAAAGGGGAAAGUAUUAUGUUACGCCGUUCGGAUCUGCAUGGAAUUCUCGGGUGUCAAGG	-0.0727
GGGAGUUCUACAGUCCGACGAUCGUCCUGUGCUACACAUCGUAUGUACCGAAUCGGGGUUUUUGGGGUUUUUGGGUUUUUGGAAAGUAUUAUGUUACGCCGUUCGGAUCUGCAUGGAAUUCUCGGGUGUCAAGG	0.0722
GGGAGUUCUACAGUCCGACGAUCUCAAGUCCUGUGCUACACAUCGUAUGUACCGAAUCGGAAAGGUUUGGUUUUUGGAAAGUAUUAUGUUACGCCGUUCGGAUCUGCACUUCCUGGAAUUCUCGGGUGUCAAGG	-0.664
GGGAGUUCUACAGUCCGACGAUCCUCAAGUCCUGUGCUACACAUCGUAUGUACCGAAUCGGGGUUGGGUUGGUUGGAAAGUAUUAUGUUACGCCGUUCGGAUCUGCACUUCCAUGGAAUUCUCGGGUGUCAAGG	0.32
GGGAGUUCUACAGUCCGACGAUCUGGGAGGUGGAUUUUGUUUAUUUUUUUAGCUCAUUUCCAGGGGUGGGAAUUUUUUUUUAAUAUGUGUCAUGAAUAAAGUUGUUCUUGAAAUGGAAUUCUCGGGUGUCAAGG	0.374
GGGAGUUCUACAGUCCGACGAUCCUCAAGUCCUGUGCUACACAUCGUAUGUACCGAAUCGGAGGUUUUUGGAAAGGAAAGUAUUAUGUUACGCCGUUCGGAUCUGCACUUCCAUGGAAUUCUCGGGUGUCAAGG	-0.482
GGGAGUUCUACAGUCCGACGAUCUCCUGUGCUACACAUCGUAUGUACCGAAUCGGGUUUUUUGGGUUUUUUGGGUUUUUUGGGAAAGUAUUAUGUUACGCCGUUCGGAUCUGCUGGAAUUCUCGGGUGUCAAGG	0.166
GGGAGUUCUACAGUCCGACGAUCUUCCUCAAGUCCUGUGCUACACAUCGUAUGUACCGAAUCGGAGGAGGGAGGAAAGUAUUAUGUUACGCCGUUCGGAUCUGCACUUCCAGCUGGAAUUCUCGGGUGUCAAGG	-0.536

Block 2
Target: CCNE1, cyclin fold, Cln2 fusion (human)
Method: yeast growth competition, sequencing
Sample: yeast
Setting: strong parent motif
Baseline: not given
Reading: higher = stronger binding
Starting sequence: CDKN1B docking peptide (human); PSACRNLFGPVDH; partner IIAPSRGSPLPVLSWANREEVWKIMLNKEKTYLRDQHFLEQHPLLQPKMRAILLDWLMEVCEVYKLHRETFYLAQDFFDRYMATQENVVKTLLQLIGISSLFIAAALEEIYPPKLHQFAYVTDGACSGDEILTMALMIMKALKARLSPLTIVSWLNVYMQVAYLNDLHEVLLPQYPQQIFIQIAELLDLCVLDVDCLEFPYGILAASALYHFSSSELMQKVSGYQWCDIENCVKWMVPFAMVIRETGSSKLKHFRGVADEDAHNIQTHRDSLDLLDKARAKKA
Variant	normalised enrichment score
PSACQNLFGPVDH [R5Q]	0.248
PSACRNLFVPVDH [G9V]	0.783
PSACLNLFGPVDH [R5L]	0.636
PSACRDLFGPVDH [N6D]	1.09
PSACRNLFGPVRH [D12R]	2.4
PSACRNNFGPVDH [L7N]	-0.501
ISACRNLFGPVDH [P1I]	3.15
PSACRNLFHPVDH [G9H]	1.1

Block 3
Target: Sal-like protein 4, full length isoform B (SALL4, Homo sapiens, UniProt Q9UJQ4-2, residues 1-616)
Method: universal PBM
Form: double-stranded DNA, one strand shown
Sample: in vitro
Concentration: not given
Setting: 8-mer, flanks averaged, mean of replicates
Reading: higher = stronger binding
Sequence	E-score
ATGCACTG	0.0171
CGGAGGAC	-0.0894
CGCCCAAC	-0.234
ATTTAGAC	0.222
TCCGACCA	-0.174
CGTTCACC	-0.155
CTTGCAAA	0.157
CTTTCAAC	0.00543
AATCTGAG	-0.0148
ACTCGAGG	-0.101
GCGCTAAC	-0.0979
AAGTTCGG	-0.115
GGATTTAC	0.11

Single results of other studies
Molecule	target	test	test system	setting	how to read	measurement	result
PhoQ, residues 284 288 289 292 302 303 STVVAA	PhoP, residues 12 14 15 18 19 NQFFI (Escherichia coli, UniProt P23836)	Sort-seq, item: YFP reporter	E. coli	PhoQ-PhoP variant library, added: 10 µM Mg2+	baseline: high Mg2+ state, higher = stronger signaling	fold induction	14.1

Some of these lines once more (block 3):
Sequence	E-score
CTTTCAAC	0.00543
AATCTGAG	-0.0148
